Measurements gathered from unrelated publications.
Every numbered part comes from another study and shows a few of its results, in no order. Substitutions count along the parent as printed.

Sample 1 — method: RNA Bind-n-Seq; form: RNA; medium: in vitro; tested at: 1 µM; notes: whole 134-nt RNA, ends assumed; with: 150 mM KCl; reference: input library; direction: higher = stronger binding; measurement: log2 enrichment
Target: Ras GTPase-activating protein-binding protein 1, C-terminal RGG region (G3BP1, Homo sapiens, UniProt Q13283)
Sequence of UniProt Q13283 (whole entry, looked up): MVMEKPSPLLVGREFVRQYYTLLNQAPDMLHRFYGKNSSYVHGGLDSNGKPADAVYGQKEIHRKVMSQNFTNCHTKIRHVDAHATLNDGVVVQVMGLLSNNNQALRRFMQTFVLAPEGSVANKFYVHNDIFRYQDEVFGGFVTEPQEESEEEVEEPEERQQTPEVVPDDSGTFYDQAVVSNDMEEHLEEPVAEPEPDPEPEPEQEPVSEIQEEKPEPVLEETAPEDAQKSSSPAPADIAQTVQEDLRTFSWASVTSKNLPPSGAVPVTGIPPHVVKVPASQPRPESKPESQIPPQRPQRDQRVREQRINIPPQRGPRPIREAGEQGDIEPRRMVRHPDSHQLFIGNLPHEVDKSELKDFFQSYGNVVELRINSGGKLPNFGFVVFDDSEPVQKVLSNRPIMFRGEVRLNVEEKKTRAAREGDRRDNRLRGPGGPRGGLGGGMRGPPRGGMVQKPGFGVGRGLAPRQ
Constant ends, left off below: GGGAGUUCUACAGUCCGACGAUC … UGGAAUUCUCGGGUGUCAAGG
UCAAGUCCUGUGCUACACAUCGUAUGUACCGAAUCGGGCCCGGGGCCCGGCCCGGAAAGUAUUAUGUUACGCCGUUCGGAUCUGCACUUC: -1.81
UUGCUAACUUCAAGAUAGAGCCUCCUGGACUUUUCCGUGGCCGCGGCAACCACCCCAAGAUGGGCAUGCUGAAGAGACGAAUCAUGCCCG: -0.973
GUCCUGUGCUACACAUCGUAUGUACCGAAUCAAAUUUUUAAACCCCCAAAUUUUUAAAAAAGUAUUAUGUUACGCCGUUCGGAUCUGCAC: -0.285
UCAAGUCCUGUGCUACACAUCGUAUGUACCGAAUCGGGUUGGGGUUGGGGUUGGAAAGUAUUAUGUUACGCCGUUCGGAUCUGCACUUCC: 0.351
CAAGUCCUGUGCUACACAUCGUAUGUACCGAAUCGGCCCCGGGCCCCGGCCCCGGGAAAGUAUUAUGUUACGCCGUUCGGAUCUGCACUU: -1.84
GAGAGCGAGGUGGCUUCAAUAAGCCUGGUGGUAAGUUUUUGAGUAUUACCAUAGAUAGUGUUUAAAAAAAAAUGCAGUCAGUUUUUAGAA: -1.35
UCCUGUGCUACACAUCGUAUGUACCGAAUCGGGCCCCCCGGCCCCCCGGGGCCCCCCGGGAAAGUAUUAUGUUACGCCGUUCGGAUCUGC: -0.594
AAGUCCUGUGCUACACAUCGUAUGUACCGAAUCGGAAAAAGGUUUUUGGAAAAAGGAAAGUAUUAUGUUACGCCGUUCGGAUCUGCACUU: -2.24
GUCCUGUGCUACACAUCGUAUGUACCGAAUCGGGGAAAAAAAGGGGUUUGGGGUGGGGAAAGUAUUAUGUUACGCCGUUCGGAUCUGCAC: 2.32
GUCCUGUGCUACACAUCGUAUGUACCGAAUCGGGGCCCCCCGGCCCCCCGGCCCCCCGGAAAGUAUUAUGUUACGCCGUUCGGAUCUGCA: -0.992

Sample 2 — method: protein binding microarray; form: double-stranded DNA, one strand shown; medium: in vitro; tested at: not given; reference: not given; direction: higher = stronger binding; measurement: E-score
Target: Histone acetyltransferase KAT6A, winged helix 2, GST fusion (KAT6A, Homo sapiens, UniProt Q92794, residues 85-181)
Notes: 8-mer, flanks averaged, mean of 2 arrays, mostly near background
Target sequence (chain): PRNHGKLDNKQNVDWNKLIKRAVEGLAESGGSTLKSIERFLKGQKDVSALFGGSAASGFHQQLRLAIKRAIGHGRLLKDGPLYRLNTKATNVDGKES
ATTAGTAA: 0.0547
CAGTAAAC: -0.0426
GAATTACA: 0.0585
CCCCAGGA: -0.107
CCAGTGAG: -0.0464
TCCAAGCA: -0.0547
ATTTGCGA: 0.1
CGTATTTC: -0.0522
CATCCGGA: 0.0808
CATACGCG: 0.0682
ATACCACG: -0.0539
GCCTACAC: -0.0244
ATGAGTCC: -0.0953
CTCAAGAC: -0.016
CCCCACCA: 0.217
GTTGGGTA: -0.0365
AAATGTGG: 0.0263
GACTGCGA: 0.137

Sample 3 — target: CCNE2, cyclin fold, Cln2 fusion (human); method: yeast growth competition, sequencing; medium: yeast; notes: weak parent motif; reference: not given; direction: higher = stronger binding; measurement: normalised enrichment score
Parent: DBF4 docking peptide (human); DDIVSKLVFDFVE; partner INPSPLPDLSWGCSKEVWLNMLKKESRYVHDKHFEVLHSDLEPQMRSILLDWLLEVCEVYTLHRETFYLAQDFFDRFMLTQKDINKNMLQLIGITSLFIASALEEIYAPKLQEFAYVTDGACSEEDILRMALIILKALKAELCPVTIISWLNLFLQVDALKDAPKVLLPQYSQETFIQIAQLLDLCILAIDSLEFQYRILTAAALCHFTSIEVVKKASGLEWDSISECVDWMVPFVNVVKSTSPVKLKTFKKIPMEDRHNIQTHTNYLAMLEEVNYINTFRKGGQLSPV
DDIVSKLVFAFVE [D10A]: -0.311
DDIVSKLVFDFAE [V12A]: -0.107
DDIVSKLVFDAVE [F11A]: 0.143
ADIVSKLVFDFVE [D1A]: -0.0704
DDAVSKLVFDFVE [I3A]: -0.0172
DDIVSKLVADFVE [F9A]: -0.21
DDIVSKLVFDFVA [E13A]: -0.0023

Sample 4 — method: universal PBM; form: double-stranded DNA, one strand shown; medium: in vitro; tested at: not given; direction: higher = stronger binding; measurement: E-score
Target: Sal-like protein 4, full length isoform B (SALL4, Homo sapiens, UniProt Q9UJQ4-2, residues 1-616)
Notes: 8-mer, flanks averaged, mean of replicates
CATATCTA: 0.351
GTACTCAA: 0.053
AGTCTTTG: -0.0224
AGGTTCAG: 0.0122
ATTGCTAA: 0.259
GAGCGTCA: -0.151
CACTACCC: -0.179
TGGAGCAA: 0.0331
CCGGTGAC: -0.363
GCTCGTGA: -0.192
TAAGTATA: 0.308
CGAAATAG: 0.0348
AAAAAAGA: 0.223
GTGAAACA: 0.114
CTAGGATC: -0.163
CTAACACC: -0.182
CTGATGTC: -0.0379
GAGCGGGC: -0.345
CGGGGAAA: -0.141
CGAATAGC: 0.0215

Sample 5 — method: DHFR PCA, deep sequencing; medium: yeast; with: (+)-ABA 58 µM; reference: wild-type fitted maximum; direction: higher = stronger binding; measurement: relative binding score
Target: ABI1, truncated, D143A, DHFR fusion (Arabidopsis thaliana)
Notes: methotrexate growth selection, single substitutions
Parent: PYL1, truncated, DHFR fusion (Arabidopsis thaliana); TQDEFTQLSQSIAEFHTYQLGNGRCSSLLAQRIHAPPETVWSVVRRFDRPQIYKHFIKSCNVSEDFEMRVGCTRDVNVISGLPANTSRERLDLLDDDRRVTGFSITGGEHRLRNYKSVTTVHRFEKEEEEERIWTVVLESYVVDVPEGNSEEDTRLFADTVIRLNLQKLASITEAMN
S80H: 30.2%
H110D: 5.15%
E139W: 76.1%
D144Q: 59.9%
D144I: 21.4%
P50R: 2.62%
G71A: 25.6%
D48M: -13.2%
F157V: 58.1%
K58M: 66.7%
S140K: 7.91%
D159V: 9.76%
Y53M: 20.5%
G81A: 29.8%
M68F: 75.1%
N85F: 76.9%
Q51F: 45.9%

Sample 6 — target: ATF3, bZIP domain (human); method: DHFR protein complementation; medium: yeast; reference: wild-type JUN-FOS pair; direction: higher = stronger binding; measurement: binding fitness
Notes: single substitutions, most at no-binding floor
Parent: JUN, bZIP domain (human); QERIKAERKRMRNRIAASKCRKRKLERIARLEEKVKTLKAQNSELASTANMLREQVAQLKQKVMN; partner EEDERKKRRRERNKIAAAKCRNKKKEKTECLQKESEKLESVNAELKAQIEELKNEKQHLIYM
A49L: -0.0284 natural log
A46V: -0.0623 natural log
M51G: -0.216 natural log
V56M: -0.929 natural log
V56N: -0.583 natural log
A46Q: -0.0668 natural log
K36F: -0.3 natural log
V56R: -1.34 natural log
S43Q: -0.0132 natural log
K36H: -0.235 natural log
A57W: -0.243 natural log
K34S: -0.324 natural log
A57S: -0.261 natural log
L52T: -1.01 natural log
L52E: -0.806 natural log
Q55R: -0.609 natural log
K36L: -0.155 natural log
K34R: 0.00687 natural log

Some of these lines once more (sample 5):
G71A: 25.6%
D48M: -13.2%
F157V: 58.1%
K58M: 66.7%
S140K: 7.91%
